Experimental data collected from several papers.
Protocols differ between the studies behind these lines. “And” joins repeats or separate records; there may be more than shown. ± marks the error that the study gave.
AKR1C1: Aldo-keto reductase family 1 member C1 (AKR1C1, Homo sapiens, UniProt Q04828)
TRPV1: Transient receptor potential cation channel subfamily V member 1 (TRPV1, Homo sapiens, UniProt Q8NER1)
SIRT1: NAD-dependent protein deacetylase sirtuin-1 (SIRT1, Homo sapiens, UniProt Q96EB6)
SLC6A3: Sodium-dependent dopamine transporter (SLC6A3, Homo sapiens, UniProt Q01959)
PPO3: PPO3 (Agaricus bisporus, UniProt C7FF04)
IDO1: Indoleamine 2,3-dioxygenase 1 (IDO1, Homo sapiens, UniProt P14902)
SETD7: Histone-lysine N-methyltransferase SETD7 (SETD7, Homo sapiens, UniProt Q8WTS6)

SMILES | target | test | test system | conditions | scale | inhibition
COc1ccc2c(c1)CC[C@@H]1[C@@H]2CC[C@]2(C)C(=O)CC[C@@H]12 | AKR1C1 | enzyme activity, inhibitor, absorbance | – | 10 µM, pH 9 | – | 8.2%
Oc1c(C(Nc2nc3ccccc3s2)c2cccc(OCc3ccccc3)c2)ccc2cccnc12 (stereo not shown) | Genome polyprotein, protease (Dengue virus type 2, UniProt P14340) | enzyme activity, inhibitor, fluorescence | – | 10 µM | – | 84.6%
Cc1cc2c(NC(=O)N[C@@H]3CC(C)(C)Oc4cc(C(F)(F)F)ccc43)c(C)ccc2cn1 | TRPV1 | acid-evoked calcium influx, antagonist | HEK293, human | 11.25 µM, pH 5 | – | 95.4 ± 1.8%
O=C(O)CN1C(=O)/C(=C/c2c[nH]nc2-c2ccc([N+](=O)[O-])cc2)SC1=S | SIRT1 | enzyme activity, inhibitor, fluorescence | – | 10 µM | – | < 30%
C[C@H](NC(=O)CNC(=O)[C@@H]1CSSC[C@H](NC(=O)[C@H](C)NC(=O)CN)C(=O)N[C@@H](CCCNC(=N)N)C(=O)N[C@@H](CCCNC(=N)N)C(=O)N[C@@H](CCC(=O)O)C(=O)N[C@@H]([C@@H](C)O)C(=O)N[C@@H](C)C(=O)N[C@@H](Cc2c[nH]c3ccccc23)C(=O)N[C@@H](C)C(=O)N1)C(=O)O | Integrin alpha-V/beta-5 (Homo sapiens, UniProt P06756+P18084) | cell attachment to vitronectin | HT-29 | concentration not given | – | no inhibition
COc1cc2c(cc1Cl)[C@H]1CC[C@@]3(C)C(=O)CC[C@H]3[C@@H]1CC2 | AKR1C1 | enzyme activity, inhibitor, absorbance | – | 100 µM, pH 9 | – | 35.7%
C[C@@H](N)C1CCN(S(=O)(=O)c2cccc3c(=O)[nH]ccc23)CC1 | PRKD2 (Homo sapiens, UniProt Q9BZL6) | cell-free assay, competition with immobilised ligand | – | 10 µM | – | > 95%
CNC(=O)[C@@]12C[C@@H]1[C@@H](n1cnc3c(NCc4cccc(Cl)c4)nc(C#Cc4cccc(Cl)c4)nc31)[C@H](O)[C@@H]2O | SLC6A3 | ligand displacement, radioligand | – | 10 µM | – | 26%
C[C@]12CCC[C@H]1[C@@H]1CCc3cc(O)ccc3[C@H]1CC2 | AKR1C1 | enzyme activity, inhibitor, absorbance | – | 10 µM, pH 9 | – | 13.8%
CCCC[C@H](C)/C=C(C)/C=C/C(=O)O | TRPV1 | calcium influx, fluorescence calcium | – | 0.1 to 10 µM, with: 10 µM capsaicin | – | no effect
NC(=O)C1CCCc2c1[nH]c1ccc(Cl)cc21 (stereo not shown) | SIRT1 | – | HepG2 | 10 µM, 6 h | – | 33%
N#C/C(=C\c1ccc(-c2cc(Cl)ccc2Cl)o1)C(=O)Nc1cccc2ncccc12 | SIRT1 | enzyme activity, inhibitor | – | 100 µM | – | 62%
Cc1ccc(C2=Nc3ccccc3SC(c3ccc(F)cc3)C2)cc1 (stereo not shown) | PPO3 | enzyme activity, inhibitor | – | 25 µg/mL | – | 76%
CC(C)c1ccc2nc3ccc(C(=O)NCCN4CCN(c5ccccc5)CC4)cn3c(=O)c2c1 | TRPV1 | calcium influx, antagonist | HeLa transfected | 1 µM, with: capsaicin 5 µM | – | inhibited
NS(=O)(=O)c1ccc(N2N=C(c3ccccc3O)CC2c2ccc(Br)cc2)cc1 (stereo not shown) | CA9 (Homo sapiens, UniProt Q16790) | enzyme activity, inhibitor | – | 1 mM | – | 40%
CCC1(CC)C[C@@H](NC(=O)Nc2cccc3c(C)nccc23)c2cc(F)ccc2O1 | TRPV1 | proton-induced activation, inhibitor, FLIPR calcium | HEK293 expressing human TRPV1 | up to 11.25 µmol/L, pH 5.0 | partial inhibition | 23.7 ± 7.4%
O=C1CSC(c2cccc(Br)c2)N1c1cc(Cl)ccc1O (stereo not shown) | act2/arp2 (Schizosaccharomyces pombe, UniProt P32390+Q9UUJ1) | actin polymerization, pyrenyl-actin | – | concentration not given | – | no inhibition
C[C@@]12CC[C@@H]3c4cc(Br)c(O)cc4CC[C@H]3[C@@H]1CCC2=O | AKR1C1 | enzyme activity, inhibitor, absorbance | – | 10 µM, pH 9 | – | 47.2%
COc1cc2ncc3c(c2cc1-c1cnn(C)c1)n(-c1ccc(C#N)cc1F)c(=O)n3C | ARK5 | kinase activity, inhibitor | – | 1 µM | – | > 50%
OB(O)c1cnn(-c2cccc(Cl)c2)c1 | PRE2 (Saccharomyces cerevisiae S288c, UniProt P30656) | 20S proteasome activity | – | 100 µM, with: Suc-LLVY-AMC | – | ≤ 20%
COc1cc(-c2c(C)cc(O[C@@H]3O[C@H](CO)[C@@H](O)[C@H](O)[C@H]3O)cc2O[C@@H]2O[C@H](CO)[C@@H](O)[C@H](O)[C@H]2OC(=O)/C=C/c2ccc(O)cc2)oc(=O)c1 | IDO1 | kynurenine formation | – | 100 µM | – | 20.56 ± 0.15%
C[C@@]12CC[C@@H]3c4ccc(O)cc4CC[C@H]3[C@@H]1CCC2=O | AKR1C1 | enzyme activity, inhibitor, absorbance | – | 10 µM, pH 9 | – | 7.5%

SMILES | target | test | test system | conditions | scale | inhibition
C/C=C/c1cc(=O)c2c(C)cc(OC)c([C@@H]3O[C@H](CO)[C@@H](O)[C@H](O)[C@H]3O)c2o1 | IDO1 | kynurenine formation | – | 100 µM | – | 28.8 ± 1.25%
COc1ccc(C2CC(c3ccc(C)cc3)=Nc3ccccc3S2)cc1 (stereo not shown) | PPO3 | enzyme activity, inhibitor | – | 25 µg/mL | – | 23%
CCCC[C@H](NC(C)=O)C(=O)N1CCC[C@H]1C(=O)N[C@@H](CO)C(=O)N[C@@H](CO)C(=O)N[C@@H](C)C(=O)N[C@@H](CO)C(=O)N[C@@H](CCCNC(=N)N)C(=O)N[C@@H](CCC(N)=O)C(=O)N[C@@H](CC(C)C)C(=O)N[C@@]1(C)CCCC=CCCC[C@@](C)(C(=O)N[C@@H](CCCCN)C(=O)N[C@@H](CCC(=O)O)C(=O)N[C@H](C(=O)N[C@@H](CCC(N)=O)C(N)=O)[C@@H](C)CC)NC(=O)[C@H](CCC(N)=O)NC(=O)[C@H](CCCCN)NC(=O)[C@H](CCCNC(=N)N)NC1=O | UBA1 (Homo sapiens, UniProt P22314) | ubiquitin thioester transfer to UBE2D2, inhibitor | – | concentration not given, staple-scanning screen | – | inactive
CNC(=O)c1ccccc1Oc1nc(Nc2cc(OC)c(OC)c(OC)c2)ncc1Br | PAK4 (Homo sapiens, UniProt O96013) | enzyme activity, inhibitor | – | 1 µM | – | 30 to 50%
O=C1/C(=C/c2c(F)cccc2Cl)Oc2cc(O)ccc21 | ERO1-like protein alpha (Homo sapiens, UniProt Q96HE7, C104A/C131A/C166A) | enzyme activity, inhibitor, fluorescence | – | 10 µM | – | 38.7%
C[C@]12CC[C@@H]3c4cc(Br)c(O)c(Br)c4CC[C@H]3[C@@H]1CCC2=O | AKR1C1 | enzyme activity, inhibitor, absorbance | – | 100 µM, pH 9 | – | 82.5%
CC1=C(/C=C/C(C)=C/C=O)C(C)(C)CCC1 | CNGA1 (Bos taurus, UniProt Q00194) | cGMP-activated current, inside-out patch clamp | Xenopus oocytes | concentration not given, with: cGMP 2 mM | – | no inhibition
Cc1ccc(C2=Nc3ccccc3SC(c3cccc([N+](=O)[O-])c3)C2)cc1 (stereo not shown) | PPO3 | enzyme activity, inhibitor | – | 25 µg/mL | – | 13%
COc1cc(-c2c(C)cc(O)cc2O)oc(=O)c1 | IDO1 | kynurenine formation | – | 100 µM | – | 6.36 ± 4.72%
CCC[C@@H]1NC(=O)[C@H]([C@@H](C)O)NC(=O)[C@H](CCCNC(=N)N)NC(=O)CNC(=O)CC[C@@H](C(=O)N[C@@H](C)C(=O)N[C@@H](CCCNC(=N)N)C(=O)N[C@@H](CCCCN)C(=O)N[C@@H](CO)C(=O)N[C@H](C(=O)NCC(=O)NCC(N)=O)[C@@H](C)O)NC(=O)[C@H](CCC(N)=O)NC1=O | SETD7 | enzyme activity, inhibitor, MALDI-TOF MS | – | 50 µM, 10 min preincubation, 30 min, pH 8, 37 °C, enzyme 500 nM, with: H3 1-21 peptide, SAM 30 µM | – | ~47%
Cc1ccc2c(c1Br)C(O)(CC(=O)c1ccc3c(c1)OCO3)C(=O)N2 (stereo not shown) | UAP1 (Homo sapiens, UniProt Q16222) | enzyme activity, coupled colorimetric | – | concentration not given | – | no inhibition
O=C(N[C@@H](CC1CCCCC1)C(=O)N[C@@H](C[C@H]1CCNC1=O)C(=O)C(=O)NC1CC1)OCc1cccc(Cl)c1 | Chymotrypsinogen A (Bos taurus, UniProt P00766) | enzyme activity, inhibitor | – | 2.5 µM, inhibitor/enzyme ratio 250 | – | 0%
N[C@H]1CCCc2c1[nH]c1ccc(Cl)cc21 | SLC6A3 | ligand displacement, radioligand | – | 10 µM | – | 54.6%
NCCC(=O)N[C@@H](Cc1c[nH]c2ccc(O)cc12)C(=O)N[C@@H](Cc1ccc(Cl)cc1)C(=O)N[C@@H](Cc1ccncc1)C(N)=O | Ephrin type-A receptor 4, ectodomain (Epha4, Mus musculus, UniProt Q03137) | ephrin-A5 binding, antagonist, ELISA | – | 500 µM, with: ephrin-A5-AP | – | ~90%
COc1cc(C(=O)NC2CCC(N3CCN(CC4CCC5(CCCC5)C4)CC3)CC2)c(F)cc1Nc1ncc2c(n1)N(C1CCCC1(F)F)CC(F)(F)C(=O)N2C (stereo not shown) | EPHB1 (Homo sapiens, UniProt P54762) | cell-free assay, TR-FRET | – | 10 µM | – | 0.93%
CC(=O)C12NC(C)(C)CC1(C)C(=O)C1=C2c2c(c3c4n2C(C)(C)CC2=C4C4(CC(C)(C)NC(C)(C4)C2=O)CC3(C)C)C(=O)C(C)(C)N1 (single isomer, unassigned; (+)) | Voltage-dependent P/Q-type calcium channel subunit alpha-1A (Homo sapiens, UniProt O00555) | ion current, inhibitor, patch clamp | HEK-293T | 10 µM | – | 64.5% and 57.3%
NC(=O)c1ccc(C(=O)NOCc2ccc(Sc3cccc(Cl)c3)c(C(F)(F)F)c2)cc1 | HDAC2 (Homo sapiens, UniProt Q92769) | cell-free assay, inhibitor | – | 100 µM | – | 2.7%
C[C@]12CC[C@@H]3c4cc(I)c(O)cc4CC[C@H]3[C@@H]1CCC2=O | AKR1C1 | enzyme activity, inhibitor, absorbance | – | 10 µM, pH 9 | – | 31.3%
CC[C@H](C)[C@H](NC(=O)[C@H](CCCNC(=N)N)NC(=O)[C@H](CCCCN)NC(=O)[C@@H]1CCCN1C(=O)[C@@H]1CCCN1CCCN(CC[C@H](N)C(=O)O)C[C@H]1O[C@@H](n2cnc3c(N)ncnc32)[C@H](O)[C@@H]1O)C(=O)N[C@@H](C)C(N)=O | SETD7 | enzyme activity, inhibitor | – | 100 µM | – | < 30%
C[C@]12CC[C@@H]3c4cc(Cl)c(O)cc4CC[C@H]3[C@@H]1CCC2=O | AKR1C1 | enzyme activity, inhibitor, absorbance | – | 100 µM, pH 9 | – | 91.6%
C[C@@H]1C[C@@H](O)Cc2cc(O)cc(O)c21 | IDO1 | kynurenine formation | – | 100 µM | – | 11.2 ± 0.35%

A few entries again:
SMILES | target | test | test system | conditions | scale | inhibition
NS(=O)(=O)c1ccc(N2N=C(c3ccccc3O)CC2c2ccc(Br)cc2)cc1 (stereo not shown) | CA9 (Homo sapiens, UniProt Q16790) | enzyme activity, inhibitor | – | 1 mM | – | 40%
CCC1(CC)C[C@@H](NC(=O)Nc2cccc3c(C)nccc23)c2cc(F)ccc2O1 | TRPV1 | proton-induced activation, inhibitor, FLIPR calcium | HEK293 expressing human TRPV1 | up to 11.25 µmol/L, pH 5.0 | partial inhibition | 23.7 ± 7.4%
O=C1CSC(c2cccc(Br)c2)N1c1cc(Cl)ccc1O (stereo not shown) | act2/arp2 (Schizosaccharomyces pombe, UniProt P32390+Q9UUJ1) | actin polymerization, pyrenyl-actin | – | concentration not given | – | no inhibition
C[C@@]12CC[C@@H]3c4cc(Br)c(O)cc4CC[C@H]3[C@@H]1CCC2=O | AKR1C1 | enzyme activity, inhibitor, absorbance | – | 10 µM, pH 9 | – | 47.2%
COc1cc2ncc3c(c2cc1-c1cnn(C)c1)n(-c1ccc(C#N)cc1F)c(=O)n3C | ARK5 | kinase activity, inhibitor | – | 1 µM | – | > 50%
